Results from different studies.
Every numbered part comes from another study and shows a few of its results, in no order. Substitutions count along the parent as printed.

Sample 1
Target: Transcription factor Sp1 (SP1, Homo sapiens, UniProt P08047, residues 1-785, full length assumed)
Sequence of UniProt P08047 (whole entry, looked up): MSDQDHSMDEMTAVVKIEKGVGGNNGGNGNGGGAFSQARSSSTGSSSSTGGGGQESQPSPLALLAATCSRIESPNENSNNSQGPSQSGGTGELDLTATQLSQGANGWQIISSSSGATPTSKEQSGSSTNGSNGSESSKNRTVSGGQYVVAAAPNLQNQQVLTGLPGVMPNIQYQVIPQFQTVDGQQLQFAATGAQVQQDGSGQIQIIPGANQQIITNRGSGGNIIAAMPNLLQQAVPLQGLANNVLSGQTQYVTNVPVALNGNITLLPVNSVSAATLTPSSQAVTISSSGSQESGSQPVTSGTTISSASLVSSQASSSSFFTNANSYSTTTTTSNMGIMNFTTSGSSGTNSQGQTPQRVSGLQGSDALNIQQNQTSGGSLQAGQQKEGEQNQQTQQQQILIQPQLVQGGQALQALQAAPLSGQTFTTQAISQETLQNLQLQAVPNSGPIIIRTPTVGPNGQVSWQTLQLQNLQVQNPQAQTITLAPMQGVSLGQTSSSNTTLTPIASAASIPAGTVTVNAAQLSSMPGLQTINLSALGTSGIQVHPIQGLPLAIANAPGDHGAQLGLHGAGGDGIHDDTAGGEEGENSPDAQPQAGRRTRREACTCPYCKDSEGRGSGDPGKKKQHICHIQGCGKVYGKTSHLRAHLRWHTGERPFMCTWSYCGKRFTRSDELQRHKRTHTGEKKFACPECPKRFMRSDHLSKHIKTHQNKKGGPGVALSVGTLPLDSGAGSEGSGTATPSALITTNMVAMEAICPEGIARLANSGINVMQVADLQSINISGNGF
Method: protein-binding microarray
Molecule type: double-stranded DNA, one strand shown
Sample: in vitro
Tested at: not given
Notes: k-mer, scored over probes, only values ≥0.25
Reading: higher = stronger binding
Sequence | E-score
CCCCTACC | 0.368
ACGCCCCC | 0.49
AGAACAAT | 0.263
CGCCCCGC | 0.273
CACACCCA | 0.386
GGGCAGGA | 0.271
AAGGGCGG | 0.323
AGGCGGGG | 0.482

Sample 2
Target: PABPC1L2, full length, GST fusion (mouse, UniProt A0ABA7IW68)
Method: RNAcompete
Molecule type: RNA
Sample: in vitro
Tested at: 20 nM
Notes: 7-mer, probes averaged, single round
Baseline: mean of 7-mers
Reading: higher = stronger binding
Target sequence (chain): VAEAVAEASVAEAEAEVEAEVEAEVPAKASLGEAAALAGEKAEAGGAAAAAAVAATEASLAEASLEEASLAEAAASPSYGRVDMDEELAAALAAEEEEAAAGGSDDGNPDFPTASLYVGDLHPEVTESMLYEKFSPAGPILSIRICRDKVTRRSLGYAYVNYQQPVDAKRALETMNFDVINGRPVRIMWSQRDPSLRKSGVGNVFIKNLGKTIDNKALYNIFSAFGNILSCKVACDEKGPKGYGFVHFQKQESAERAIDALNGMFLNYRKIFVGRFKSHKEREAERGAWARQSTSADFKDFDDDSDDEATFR
Sequence | 7-mer Z-score
UCUGUAU | -0.296
GAGAUAC | -0.05
CCGACGC | -0.255
GAAACUC | -0.0138
UCGACAU | -0.173
UGAAAUA | 0.244

Sample 3
Target: CCND1, cyclin fold, Cln2 fusion (human)
Method: yeast growth competition, sequencing
Sample: yeast
Notes: weak parent motif
Baseline: not given
Reading: higher = stronger binding
Starting sequence: BRCA2 docking peptide (human); PSIKRNLLNEFDR; partner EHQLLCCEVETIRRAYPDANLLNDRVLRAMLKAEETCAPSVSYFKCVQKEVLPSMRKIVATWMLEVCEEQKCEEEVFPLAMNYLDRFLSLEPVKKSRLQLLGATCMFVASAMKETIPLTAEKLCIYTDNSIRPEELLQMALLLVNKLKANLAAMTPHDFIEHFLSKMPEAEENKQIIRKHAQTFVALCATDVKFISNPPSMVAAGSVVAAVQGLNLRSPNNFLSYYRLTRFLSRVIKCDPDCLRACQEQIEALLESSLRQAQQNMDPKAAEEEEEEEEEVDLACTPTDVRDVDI
Substitution | normalised enrichment score
E10V | 0.0755
L7T | 0.411
P1E | 1.38
L8A | 0.203
P1A | 0.381

Other studies, line by line
Molecule | target | assay | system | conditions | how to read | quantity | result
PhoQ, residues 284 288 289 292 302 303 SNSSNI | PhoP, residues 12 14 15 18 19 AWHSL (Escherichia coli, UniProt P23836) | Sort-seq, refers to: YFP reporter | E. coli | PhoQ-PhoP variant library, with: 10 µM Mg2+ | baseline: high Mg2+ state, higher = stronger signaling | fold induction | 3.32

Repeated from above (sample 1):
Sequence | E-score
AGAACAAT | 0.263
